Published values collected from several papers.
Lines come from different studies, so protocols differ.
Chain of UniProt P10721 (whole entry, unmodified, looked up): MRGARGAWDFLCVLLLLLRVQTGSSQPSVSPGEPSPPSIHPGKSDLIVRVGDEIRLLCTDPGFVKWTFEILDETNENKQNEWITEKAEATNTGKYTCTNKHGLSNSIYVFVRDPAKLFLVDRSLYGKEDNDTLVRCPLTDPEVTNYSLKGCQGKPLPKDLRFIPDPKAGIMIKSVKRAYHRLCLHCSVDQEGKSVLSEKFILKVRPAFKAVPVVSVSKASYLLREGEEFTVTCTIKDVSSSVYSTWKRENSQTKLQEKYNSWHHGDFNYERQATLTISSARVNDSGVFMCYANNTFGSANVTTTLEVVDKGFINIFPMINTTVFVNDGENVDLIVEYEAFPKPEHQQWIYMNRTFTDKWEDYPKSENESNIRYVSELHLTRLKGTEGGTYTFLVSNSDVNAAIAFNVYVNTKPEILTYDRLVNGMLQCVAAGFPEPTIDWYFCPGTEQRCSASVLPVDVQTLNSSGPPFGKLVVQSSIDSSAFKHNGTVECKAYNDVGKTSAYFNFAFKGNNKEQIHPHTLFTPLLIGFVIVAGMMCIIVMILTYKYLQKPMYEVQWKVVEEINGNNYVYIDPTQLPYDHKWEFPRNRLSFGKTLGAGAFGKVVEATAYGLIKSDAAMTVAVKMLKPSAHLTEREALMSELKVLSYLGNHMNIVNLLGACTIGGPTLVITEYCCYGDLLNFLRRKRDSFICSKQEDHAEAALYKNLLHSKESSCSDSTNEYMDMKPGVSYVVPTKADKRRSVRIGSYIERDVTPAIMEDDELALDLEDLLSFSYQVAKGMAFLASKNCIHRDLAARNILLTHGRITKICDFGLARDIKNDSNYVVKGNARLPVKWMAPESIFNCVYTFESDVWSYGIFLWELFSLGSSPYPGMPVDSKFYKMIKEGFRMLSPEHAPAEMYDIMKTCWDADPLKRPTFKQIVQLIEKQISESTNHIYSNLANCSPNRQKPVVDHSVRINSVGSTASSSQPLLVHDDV
Chain of UniProt P31751 (whole entry, looked up): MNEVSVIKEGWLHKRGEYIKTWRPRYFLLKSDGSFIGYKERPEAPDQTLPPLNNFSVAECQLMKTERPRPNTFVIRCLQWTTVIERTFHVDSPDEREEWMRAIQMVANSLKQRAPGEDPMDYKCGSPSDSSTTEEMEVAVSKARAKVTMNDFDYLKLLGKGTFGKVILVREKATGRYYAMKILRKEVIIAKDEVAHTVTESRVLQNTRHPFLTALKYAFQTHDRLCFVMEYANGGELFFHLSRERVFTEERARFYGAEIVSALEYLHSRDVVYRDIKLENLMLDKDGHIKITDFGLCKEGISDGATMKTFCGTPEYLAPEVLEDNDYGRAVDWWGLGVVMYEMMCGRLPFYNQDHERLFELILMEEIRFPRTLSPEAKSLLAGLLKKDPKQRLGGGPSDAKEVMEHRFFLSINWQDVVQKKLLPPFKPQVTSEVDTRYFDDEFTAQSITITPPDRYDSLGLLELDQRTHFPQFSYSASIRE
Chain of UniProt Q92630 (whole entry, looked up): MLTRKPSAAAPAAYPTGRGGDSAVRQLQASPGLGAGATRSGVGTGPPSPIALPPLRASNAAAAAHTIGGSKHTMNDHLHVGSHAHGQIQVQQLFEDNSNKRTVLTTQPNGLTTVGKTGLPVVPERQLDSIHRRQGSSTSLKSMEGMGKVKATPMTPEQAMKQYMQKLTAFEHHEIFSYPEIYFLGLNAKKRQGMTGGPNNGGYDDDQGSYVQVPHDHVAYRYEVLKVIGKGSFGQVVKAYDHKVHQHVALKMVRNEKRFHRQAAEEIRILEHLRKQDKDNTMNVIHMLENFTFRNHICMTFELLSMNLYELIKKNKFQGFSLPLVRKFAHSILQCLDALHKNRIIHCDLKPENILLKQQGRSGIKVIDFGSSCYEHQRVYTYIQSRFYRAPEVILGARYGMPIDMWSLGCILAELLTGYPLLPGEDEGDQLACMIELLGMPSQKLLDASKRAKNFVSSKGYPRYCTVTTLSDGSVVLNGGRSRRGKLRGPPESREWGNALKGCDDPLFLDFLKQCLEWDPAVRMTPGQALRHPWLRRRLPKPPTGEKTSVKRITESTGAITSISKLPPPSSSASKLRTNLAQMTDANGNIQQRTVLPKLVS
Chain of UniProt Q5S007 (whole entry, looked up): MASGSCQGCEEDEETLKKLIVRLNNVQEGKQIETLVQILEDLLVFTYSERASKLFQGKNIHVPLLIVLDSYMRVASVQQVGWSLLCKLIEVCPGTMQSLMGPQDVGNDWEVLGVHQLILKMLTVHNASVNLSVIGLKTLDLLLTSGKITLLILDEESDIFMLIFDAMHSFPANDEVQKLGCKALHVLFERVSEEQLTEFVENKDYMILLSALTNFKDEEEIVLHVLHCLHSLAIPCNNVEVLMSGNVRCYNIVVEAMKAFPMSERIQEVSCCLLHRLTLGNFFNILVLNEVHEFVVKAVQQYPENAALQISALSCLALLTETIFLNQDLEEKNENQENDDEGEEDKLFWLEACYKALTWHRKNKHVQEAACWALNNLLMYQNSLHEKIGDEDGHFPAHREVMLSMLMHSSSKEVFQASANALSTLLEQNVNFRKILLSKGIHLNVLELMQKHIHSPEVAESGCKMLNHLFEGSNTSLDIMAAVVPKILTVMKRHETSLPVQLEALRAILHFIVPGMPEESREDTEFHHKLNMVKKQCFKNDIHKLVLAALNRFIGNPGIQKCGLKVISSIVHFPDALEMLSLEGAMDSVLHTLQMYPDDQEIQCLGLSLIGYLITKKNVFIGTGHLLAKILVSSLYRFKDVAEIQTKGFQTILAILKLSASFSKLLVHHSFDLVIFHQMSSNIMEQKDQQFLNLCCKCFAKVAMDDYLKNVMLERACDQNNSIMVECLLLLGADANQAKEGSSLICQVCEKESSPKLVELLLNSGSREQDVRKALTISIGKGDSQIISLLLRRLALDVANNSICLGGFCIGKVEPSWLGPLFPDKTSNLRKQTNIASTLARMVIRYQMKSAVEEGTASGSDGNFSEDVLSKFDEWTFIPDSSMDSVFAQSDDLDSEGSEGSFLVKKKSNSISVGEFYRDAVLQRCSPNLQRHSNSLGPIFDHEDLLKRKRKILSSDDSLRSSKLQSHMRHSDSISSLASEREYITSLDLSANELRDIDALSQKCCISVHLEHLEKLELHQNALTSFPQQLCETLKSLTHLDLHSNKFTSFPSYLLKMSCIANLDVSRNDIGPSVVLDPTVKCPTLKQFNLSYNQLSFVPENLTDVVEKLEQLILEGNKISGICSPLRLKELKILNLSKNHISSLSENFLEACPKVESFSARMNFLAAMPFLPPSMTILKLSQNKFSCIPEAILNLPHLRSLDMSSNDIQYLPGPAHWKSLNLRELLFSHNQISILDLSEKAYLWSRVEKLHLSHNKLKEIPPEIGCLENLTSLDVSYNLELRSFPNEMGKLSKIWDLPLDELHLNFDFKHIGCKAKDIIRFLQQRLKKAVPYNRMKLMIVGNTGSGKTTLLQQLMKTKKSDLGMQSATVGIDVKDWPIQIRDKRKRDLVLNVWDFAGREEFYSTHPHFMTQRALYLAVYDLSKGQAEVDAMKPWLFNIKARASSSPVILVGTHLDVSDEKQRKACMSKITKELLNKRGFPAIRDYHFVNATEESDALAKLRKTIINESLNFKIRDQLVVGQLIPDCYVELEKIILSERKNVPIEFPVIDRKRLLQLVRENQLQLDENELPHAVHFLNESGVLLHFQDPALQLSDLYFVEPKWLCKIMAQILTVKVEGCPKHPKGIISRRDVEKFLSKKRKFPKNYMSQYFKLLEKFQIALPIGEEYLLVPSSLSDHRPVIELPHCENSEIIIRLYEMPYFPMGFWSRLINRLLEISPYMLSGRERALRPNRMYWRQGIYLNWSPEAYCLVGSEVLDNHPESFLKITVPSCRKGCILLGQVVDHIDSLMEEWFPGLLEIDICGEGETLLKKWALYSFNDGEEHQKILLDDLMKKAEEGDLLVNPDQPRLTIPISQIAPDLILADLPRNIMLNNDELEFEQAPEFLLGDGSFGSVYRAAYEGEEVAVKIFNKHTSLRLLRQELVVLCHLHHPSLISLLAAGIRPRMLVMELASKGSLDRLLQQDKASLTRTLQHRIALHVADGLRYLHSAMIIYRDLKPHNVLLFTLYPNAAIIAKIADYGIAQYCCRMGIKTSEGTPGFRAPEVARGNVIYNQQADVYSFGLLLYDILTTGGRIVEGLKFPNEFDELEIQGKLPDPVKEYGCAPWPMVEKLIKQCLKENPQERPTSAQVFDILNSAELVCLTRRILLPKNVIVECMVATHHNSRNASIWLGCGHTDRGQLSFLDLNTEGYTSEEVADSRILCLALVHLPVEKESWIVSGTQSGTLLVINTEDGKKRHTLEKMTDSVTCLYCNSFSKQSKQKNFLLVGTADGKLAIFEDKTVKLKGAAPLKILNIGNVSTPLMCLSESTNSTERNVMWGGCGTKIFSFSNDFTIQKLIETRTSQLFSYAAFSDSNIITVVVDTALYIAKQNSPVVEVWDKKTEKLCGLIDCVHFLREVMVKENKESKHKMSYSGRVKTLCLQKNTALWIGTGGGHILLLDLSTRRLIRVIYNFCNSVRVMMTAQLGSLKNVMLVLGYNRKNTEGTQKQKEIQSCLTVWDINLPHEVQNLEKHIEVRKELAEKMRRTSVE

SMILES | target or system | assay | setting | measurement | value
C=CC(=O)N1CCC(COCC(=O)N2CCN(c3nc(-c4cnc(N)nc4C(F)F)nc(N4CCOC[C@@H]4C)n3)CC2)CC1 | Leucine-rich repeat serine/threonine-protein kinase 2 (LRRK2, Homo sapiens, UniProt Q5S007) | binding, competition with immobilised ligand | 1 µM | remaining binding | 89%
COc1cc(-c2cncc3c2CN(C)Cc2cc(N4CCNCC4)ccc2-3)cc(OC)c1OC | Serine/threonine-protein kinase TAO1 (TAOK1, Homo sapiens, UniProt Q7L7X3) | enzyme activity, inhibitor | 1 µM | remaining activity | 90%
CCC(=CCc1c(O)cc2c(c1O)C(=O)CC(c1ccc(O)cc1)O2)CC (stereo in doubt) | HeLa | cell growth or viability, MTT | 25 µM, 48 h | inhibition | 71.8%
Cc1cc(=O)oc2ccc(-c3cc(-c4cccs4)nc(N)n3)c(O)c12 | KB | cell growth or viability, MTT | 2 µg/mL, 72 h | inhibition | 0%
COc1ccc(COC[C@@](O)(CNCc2ccc(F)cc2)[C@@H]2CC[C@@H](C)C[C@H]2OCc2ccc(OC)cc2)cc1 | A2780 | cell growth or viability, MTT | 10 µM, 72 h | inhibition | 94.1%
Cc1cccc(Cn2nc(-c3ccc(CO)o3)c3ccccc32)c1 | RBE | cell growth or viability, ATP luminescence | 46 µM, 72 h | inhibition | 73%
CCC(=CCc1c(O)cc2c(c1O)C(=O)C[C@H](c1ccccc1O)O2)CC | HeLa | cell growth or viability, MTT | 1.875 µM, 48 h | inhibition | -1.14%
Cc1noc(NS(=O)(=O)c2ccc(N=NN(O)c3ccccc3)cc2)c1C |  | ABTS scavenging | 240 µg/mL | inhibition | 89.9%
CCN(Cc1ccccc1F)c1ccc(CO)c(Cl)c1 | RBE | cell growth or viability, ATP luminescence | 46 µM, 72 h | inhibition | 61%
Cc1ccc(-c2cc(-c3ccc4oc(=O)cc(C)c4c3O)nc(N)n2)cc1 | KB | cell growth or viability, MTT | 32 µg/mL, 72 h | inhibition | 0%
C[C@@H]1CC[C@@H]([C@](C)(O)CNCc2ccccc2F)[C@H](OCc2ccccc2)C1 | A2780 | cell growth or viability, MTT | 30 µM, 72 h | inhibition | 98.1%
ONCc1ccc(-c2nn(Cc3ccccc3)c3ccccc23)o1 | RBE | cell growth or viability, ATP luminescence | 46 µM, 72 h | inhibition | 52%
COc1ccc(CNC[C@@](C)(O)[C@@H]2CC[C@@H](C)C[C@H]2OCc2ccccc2)cc1 | HeLa | cell growth or viability, MTT | 10 µM, 72 h | inhibition | 75.8%
CNc1ncc2c(/C=C/C(=O)N3CCC(OC)CC3)nn(Cc3cccc(C(F)(F)F)c3)c2n1 | Dual specificity tyrosine-phosphorylation-regulated kinase 2 (DYRK2, Homo sapiens, UniProt Q92630) | enzyme activity, inhibitor, radiometric | 1 µM | remaining activity | 95%
CCN(Cc1ccccc1OC)c1ccc(CO)c(Cl)c1 | RBE | cell growth or viability, ATP luminescence | 46 µM, 72 h | inhibition | 66%
CCCCC(=O)Nc1ccc(-c2ccc3ncn(CCC)c(=O)c3c2)cn1 | Mast/stem cell growth factor receptor Kit (KIT, Homo sapiens, UniProt P10721, V559D/V654A) | binding, competition with immobilised ligand | 0.5 µM | remaining binding | 100%
C[C@@H]1CC[C@@H]([C@](O)(CNCc2ccccc2)COCc2ccccc2)[C@H](OCc2ccccc2)C1 | HeLa | cell growth or viability, MTT | 10 µM, 72 h | inhibition | 99.1%
Cc1cc([C@@H](C)Nc2ccccc2C(=O)O)c2nc(N3CCC(F)(F)CC3)c(C#N)c(=O)n2c1 | RAC-beta serine/threonine-protein kinase (AKT2, Homo sapiens, UniProt P31751) | binding, competition with immobilised ligand | 1 µM | remaining binding | 96%

Some of these lines once more:
SMILES | target or system | assay | setting | measurement | value
Cc1cc(=O)oc2ccc(-c3cc(-c4cccs4)nc(N)n3)c(O)c12 | KB | cell growth or viability, MTT | 2 µg/mL, 72 h | inhibition | 0%
